Results gathered from unrelated publications.
Numbered parts are unrelated; each lists some results of a single study. Positions count from the first letter of the parent shown.

Series 1
Target: RNA binding protein fox-1 homolog 2, RRM domain, GST-SBP tag (RBFOX2, Homo sapiens, UniProt O43251-10, residues 100-194)
Method: RNA Bind-n-Seq
Molecule type: RNA
Sample: in vitro
Tested at: 365 nM
Notes: natural RNA segment, single round, ends assumed
Baseline: no-protein control
Reading: higher = stronger binding
Construct (chain): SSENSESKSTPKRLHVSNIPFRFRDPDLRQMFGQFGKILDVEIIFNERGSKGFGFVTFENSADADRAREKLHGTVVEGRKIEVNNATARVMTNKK
Sequence | RBNS enrichment (R)
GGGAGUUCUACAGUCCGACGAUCGUCCCAGACAGCACAGGUCAAGCAGCGUGGGACUGUGGAGCCCCUGGCAGGCUGGCCUGGUGCUGCCCCCUUAGCCCAGAAGCCCUGCCAGGUCCAGUGGCCUGGGGUCCUGGAAUUCUCGGGUGCCAA | 0.207
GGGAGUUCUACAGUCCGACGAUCCUGUUGCUGGCUUACAGUUUCUCUGUGUGCUUUGUGGUUGCUGUCAUAUUUGCUCUAGAAGAAAAAAAAAAAAGGAGGGGAAAUGCAUUUUCCCCAGAGAUAAAGGCUGCUGGAAUUCUCGGGUGCCAA | 0.479
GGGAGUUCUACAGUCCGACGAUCGACAUCGCUAAGUACUAAGGCCGCAGACUCCUGUCCGCAGCCUCGCAGCUCCGUGGGGCCCUCCGCCCCAGCCCCAGCCAGCCAGGCCCUGGUGGAAAGGCUGGGAGCCGUGGAAUUCUCGGGUGCCAA | 0.123
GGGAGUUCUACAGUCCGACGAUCAGCAUUUAUUCUUGGGUCCUUUAGCCAAACCCAUUCCCUCUUCCUCCCAUGCAAGUUCUUUUGGGAACACCCAGAAAACUUCUCUGAGAAGAAAAAUGGAAGGUAAGUUGUGGAAUUCUCGGGUGCCAA | 7.54
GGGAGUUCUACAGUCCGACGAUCCACUUUGGGAGGCCAAGGCAGGUAGAUCACUUGAUGCCAGGAGUUCCAGACCAGGCUGGCCGACAUGGUGAAACCCCAUCUCUACUAAAAAAUAUAAAAAUUAGCCGGGCUGGAAUUCUCGGGUGCCAA | 0.436
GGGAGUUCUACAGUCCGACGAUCGACCUCGUGAUCCGCCCACCUCGGCCUCCCAAAGUGCUGGGAUUACAGGCGUGAGCCACCACGCCCAGCCAGGGUUUUCUUUUUUAAUCCUUUCCAGAAACAGAAAGAGCUGGAAUUCUCGGGUGCCAA | 0.227
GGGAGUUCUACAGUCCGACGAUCUAUAAGCUCUUAAAAUGAGAAUGGAAGUGUCAGUAUAGACCCAGUGUACUUAAGUGCUGAUGACUGUUAGCCAGUUUACAACUUUUUACCAUCGAUGUACACAUUUGAUAUGGAAUUCUCGGGUGCCAA | 0.438
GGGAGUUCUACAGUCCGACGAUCCGAAAUGAAAACUCAGGCAGUUUAGUCCAUAGUGGUACUAUUUUGAUGAUAUUUUCCAUUAAUAAAAUGUAAUUUCAGAUUAUUCGUUUACAAGCUUUAUAAUUUUAUGAUGGAAUUCUCGGGUGCCAA | 0.522

Series 2
Target: RING finger protein unkempt homolog, zinc fingers 1-6, GST-SBP tag (UNK, Homo sapiens, UniProt Q9C0B0, residues 30-357)
Sequence of UniProt Q9C0B0 (30-357, looked up): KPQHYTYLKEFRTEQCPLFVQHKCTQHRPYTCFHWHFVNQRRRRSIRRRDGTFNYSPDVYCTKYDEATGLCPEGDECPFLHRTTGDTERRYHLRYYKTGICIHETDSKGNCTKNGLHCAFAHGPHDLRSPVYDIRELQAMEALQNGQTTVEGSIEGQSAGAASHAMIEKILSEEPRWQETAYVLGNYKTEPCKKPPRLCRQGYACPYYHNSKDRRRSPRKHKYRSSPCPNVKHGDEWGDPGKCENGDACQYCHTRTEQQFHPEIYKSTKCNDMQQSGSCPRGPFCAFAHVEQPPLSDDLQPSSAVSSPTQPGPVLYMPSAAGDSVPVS
Method: RNA Bind-n-Seq
Molecule type: RNA
Sample: in vitro
Tested at: not given
Notes: RNA with constant flanks, ends assumed
Baseline: input RNA pool
Reading: higher = stronger binding
Sequence | bound/input enrichment
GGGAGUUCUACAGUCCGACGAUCGGUAGACCAGAAACCACAAAUUGACUUUUUUUCUUAGAAAAUAUUUCUAUUUGCGGUAAAUACCGUAAUAUGUAAAUAAUGUACAUCUGUUGAUUUCUGGAGUGUCUGUUAUUCAAUGAUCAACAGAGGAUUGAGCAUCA | 0.584 ratio
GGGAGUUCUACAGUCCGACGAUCCCCAACCCCUGAGGCCUACAUCCAUCGAGCUGGCAGGACAGCACGCGCUAACAACCCAGGCACCGUCUUAACCUUUGUGCUUCCCACGGAGCAGUUCCACUUAGGCAAGAUUGAGGAGCUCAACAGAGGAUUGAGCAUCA | 0.256 ratio
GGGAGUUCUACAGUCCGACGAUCGCCAGUACAUCUGACAUUGAAGAGAAGGAGAACAGAGAGUCUUCAAGUUUGCGAACAAGCCGUUCUUACACAAGAAGAAAAUGGGAAGAUGAUCUUAAAAAGAAUAGUUCGAUCAAUGAACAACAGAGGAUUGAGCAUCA | 0.159 ratio
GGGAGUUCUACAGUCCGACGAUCGUCCCCCUCUUGCUAAAUAAUGUGAAAGGGGAGCCCCCAGAGGACUCACUGCCUGCCGAUCACUUUCAGACACAAACUGAGCCAGUGGACUUGUCAAUCAACAAAGCCAGGACCUCCCCUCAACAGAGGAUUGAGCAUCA | 0.158 ratio
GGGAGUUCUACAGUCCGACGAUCGACGAUGAAACAGUUGAUAGCUUAGGCCCCCUGGAAAAAGGACAAGUGAAAAAUGAGGCGCUCCGAGAAUUGAGAGUGGAGCUCAGCAAAAAACACCAAGCUCGAGAACUUGAUGGAUUUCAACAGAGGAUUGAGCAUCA | 0.148 ratio
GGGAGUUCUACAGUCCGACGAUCGAUAUGGGCUAUAAUACAUUAGCCAACUUUCGAAUAGAAAAGAAAAUUGGUCGCGGACAAUUCCGUGAAGUUUAUAGAGCAGCCUGUCUCUUGGAUGGAGUACCAGUAGCUUUAAAAAAACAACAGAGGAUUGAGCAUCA | 0.433 ratio
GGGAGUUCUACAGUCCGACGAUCCAAAGGAGUCUCGAAGAGUCUCAAGGGAAAAUAGCCCAACUGGAGGGAAAACUUGUUUCAACCGAGAAAGAAAAGAUUGAUGAAAAAUCUGAAACAGAAAAACUCUUGGAAUACAUCGAACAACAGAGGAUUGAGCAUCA | 0.151 ratio
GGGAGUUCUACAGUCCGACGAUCAGGGAAAUAUUAUCUGAUGACAAGCAUGAUUGGGAGCAGAGAGUAAAUGCUCUAAAAAAGAUCCGAUCUUUACUUUUGGCUGGUGCUGCUGAGUAUGAUAACUUCUUUCAACAUUUGCGUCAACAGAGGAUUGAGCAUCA | 0.192 ratio

Series 3
Target: ABI1, truncated, D143A, DHFR fusion (Arabidopsis thaliana)
Method: DHFR PCA, deep sequencing
Sample: yeast
Notes: methotrexate growth selection, single substitutions
With: (+)-ABA 0.032 µM
Baseline: wild-type fitted maximum
Reading: higher = stronger binding
Parent: PYL1, truncated, DHFR fusion (Arabidopsis thaliana); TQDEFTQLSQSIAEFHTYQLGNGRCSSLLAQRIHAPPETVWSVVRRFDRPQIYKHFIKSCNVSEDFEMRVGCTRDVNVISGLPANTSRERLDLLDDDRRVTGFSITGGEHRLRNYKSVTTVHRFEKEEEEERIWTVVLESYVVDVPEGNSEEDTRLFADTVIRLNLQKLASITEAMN; partner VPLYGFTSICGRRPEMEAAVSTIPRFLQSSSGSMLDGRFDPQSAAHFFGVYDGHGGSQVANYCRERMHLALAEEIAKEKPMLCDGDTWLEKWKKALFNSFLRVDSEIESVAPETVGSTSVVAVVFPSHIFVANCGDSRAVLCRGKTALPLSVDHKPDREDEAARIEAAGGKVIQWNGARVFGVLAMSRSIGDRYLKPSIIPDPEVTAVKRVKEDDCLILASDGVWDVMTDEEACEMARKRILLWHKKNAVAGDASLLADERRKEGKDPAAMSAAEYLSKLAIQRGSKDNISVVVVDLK
Variant | relative binding score
N177A | 39.9%
G23D | 5.82%
R32T | 37.2%
V78Q | -0.741%
K168S | 13.5%
T160L | 6.13%
L166M | 2.09%
I162D | 0.835%
R46W | -3.29%
H55Y | 12%
L82E | -2.08%
Q7L | 19%
R111W | 1.15%
M176K | 7.02%
T154S | -5.19%
R46F | -11.9%
P37G | -3.41%

Series 4
Organism: Saccharomyces cerevisiae
Observed: binding
Method: competitive growth deep sequencing
Molecule type: peptide
Strain: cyclin D3-Cln2 fusion strain
Notes: peptide tiling library
Reading: direction not given
Molecule | enrichment score
SMTDFYHSKRRLIFSK | -1.78
FQDSGYNELKSCSFDN | 0.0981
IVLICAKRSLCAAFSV | -1.83
KRNLLNEFDRII | 0.504
KPKPVKPVTFSTGIKM | 1.32
GLPDFVFQQQPVESEA | -0.155
PKNAKRNLSSEFAN | -1.11
PKRAKRKLYTSEISSP | -0.657
VLVRTSACRSLFGPVD | -1.26
SSEVARHLLFQSHM | -2.03
TARRIFQEPTEPKTKA | 0.342
PAKRRLELGE | -0.0236
DGCSPIKNWSPMRL | -0.202
SAVPLILPQAPSGPSY | 1.7
PARRRLRLSVDEVSSP | -1.53
